{"data": "Experimental data pooled from the literature", "note": "Each numbered part is a random draw from the data of one study; scales do not carry over between parts. Values joined by “and” are separate records of one study, mostly repeats; a detail may differ.", "chain of UniProt P19784 (whole entry, looked up)": "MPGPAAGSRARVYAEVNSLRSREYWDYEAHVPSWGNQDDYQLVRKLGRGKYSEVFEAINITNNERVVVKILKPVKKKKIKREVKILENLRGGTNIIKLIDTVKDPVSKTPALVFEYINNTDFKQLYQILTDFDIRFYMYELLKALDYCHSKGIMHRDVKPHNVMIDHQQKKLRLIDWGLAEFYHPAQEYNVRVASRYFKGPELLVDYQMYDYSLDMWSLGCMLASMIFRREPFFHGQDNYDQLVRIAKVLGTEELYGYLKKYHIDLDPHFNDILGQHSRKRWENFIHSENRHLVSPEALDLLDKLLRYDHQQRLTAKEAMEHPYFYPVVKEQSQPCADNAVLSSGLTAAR", "chain of UniProt P10721 (whole entry, unmodified, looked up)": "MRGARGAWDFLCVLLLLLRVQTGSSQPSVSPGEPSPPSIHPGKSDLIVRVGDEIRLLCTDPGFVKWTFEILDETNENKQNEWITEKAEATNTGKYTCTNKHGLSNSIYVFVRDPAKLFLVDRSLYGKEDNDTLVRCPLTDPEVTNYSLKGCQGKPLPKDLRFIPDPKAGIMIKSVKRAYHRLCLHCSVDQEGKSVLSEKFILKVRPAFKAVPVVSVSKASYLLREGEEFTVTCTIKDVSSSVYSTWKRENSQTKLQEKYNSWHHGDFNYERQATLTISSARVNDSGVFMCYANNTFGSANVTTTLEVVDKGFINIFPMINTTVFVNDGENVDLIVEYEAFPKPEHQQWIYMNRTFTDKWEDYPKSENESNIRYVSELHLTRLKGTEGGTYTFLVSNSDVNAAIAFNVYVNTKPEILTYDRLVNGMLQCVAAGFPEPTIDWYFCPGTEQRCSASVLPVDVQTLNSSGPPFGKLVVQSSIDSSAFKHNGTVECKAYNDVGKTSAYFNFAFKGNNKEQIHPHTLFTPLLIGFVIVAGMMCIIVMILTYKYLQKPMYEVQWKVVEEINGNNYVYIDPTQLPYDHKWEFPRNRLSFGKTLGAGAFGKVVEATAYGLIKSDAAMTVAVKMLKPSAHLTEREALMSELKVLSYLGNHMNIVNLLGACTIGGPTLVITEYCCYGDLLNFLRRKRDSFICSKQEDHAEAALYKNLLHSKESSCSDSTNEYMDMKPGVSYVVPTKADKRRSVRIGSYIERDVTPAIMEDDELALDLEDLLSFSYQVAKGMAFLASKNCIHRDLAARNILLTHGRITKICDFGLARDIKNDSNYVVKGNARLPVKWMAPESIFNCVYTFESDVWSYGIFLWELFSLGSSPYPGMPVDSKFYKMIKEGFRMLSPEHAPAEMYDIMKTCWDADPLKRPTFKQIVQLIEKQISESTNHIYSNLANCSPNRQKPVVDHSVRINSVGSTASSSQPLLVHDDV", "chain of UniProt P49841 (whole entry, looked up)": "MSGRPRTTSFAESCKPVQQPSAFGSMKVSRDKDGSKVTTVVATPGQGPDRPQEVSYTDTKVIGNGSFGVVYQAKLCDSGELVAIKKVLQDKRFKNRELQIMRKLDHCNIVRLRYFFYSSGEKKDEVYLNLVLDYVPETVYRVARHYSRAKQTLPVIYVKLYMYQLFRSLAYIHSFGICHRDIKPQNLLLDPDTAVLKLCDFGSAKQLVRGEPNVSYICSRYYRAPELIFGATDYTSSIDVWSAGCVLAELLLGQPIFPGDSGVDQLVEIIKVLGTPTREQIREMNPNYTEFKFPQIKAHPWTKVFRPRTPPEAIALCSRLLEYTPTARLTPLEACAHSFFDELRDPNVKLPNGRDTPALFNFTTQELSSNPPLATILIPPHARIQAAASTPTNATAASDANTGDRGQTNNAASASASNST", "chain of UniProt O00141 (whole entry, looked up)": "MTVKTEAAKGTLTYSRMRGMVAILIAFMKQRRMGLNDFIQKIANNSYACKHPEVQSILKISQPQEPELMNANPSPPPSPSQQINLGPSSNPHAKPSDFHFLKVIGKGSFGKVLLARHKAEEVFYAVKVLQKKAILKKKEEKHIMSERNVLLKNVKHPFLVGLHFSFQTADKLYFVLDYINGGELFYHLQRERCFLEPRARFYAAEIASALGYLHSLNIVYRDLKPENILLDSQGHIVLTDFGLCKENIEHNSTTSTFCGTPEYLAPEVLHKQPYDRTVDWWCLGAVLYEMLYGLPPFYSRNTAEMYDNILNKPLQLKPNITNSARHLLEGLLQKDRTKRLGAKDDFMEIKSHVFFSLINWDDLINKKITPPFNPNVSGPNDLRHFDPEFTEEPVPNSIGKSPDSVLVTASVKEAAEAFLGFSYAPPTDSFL", "chain of UniProt P42680 (whole entry, looked up)": "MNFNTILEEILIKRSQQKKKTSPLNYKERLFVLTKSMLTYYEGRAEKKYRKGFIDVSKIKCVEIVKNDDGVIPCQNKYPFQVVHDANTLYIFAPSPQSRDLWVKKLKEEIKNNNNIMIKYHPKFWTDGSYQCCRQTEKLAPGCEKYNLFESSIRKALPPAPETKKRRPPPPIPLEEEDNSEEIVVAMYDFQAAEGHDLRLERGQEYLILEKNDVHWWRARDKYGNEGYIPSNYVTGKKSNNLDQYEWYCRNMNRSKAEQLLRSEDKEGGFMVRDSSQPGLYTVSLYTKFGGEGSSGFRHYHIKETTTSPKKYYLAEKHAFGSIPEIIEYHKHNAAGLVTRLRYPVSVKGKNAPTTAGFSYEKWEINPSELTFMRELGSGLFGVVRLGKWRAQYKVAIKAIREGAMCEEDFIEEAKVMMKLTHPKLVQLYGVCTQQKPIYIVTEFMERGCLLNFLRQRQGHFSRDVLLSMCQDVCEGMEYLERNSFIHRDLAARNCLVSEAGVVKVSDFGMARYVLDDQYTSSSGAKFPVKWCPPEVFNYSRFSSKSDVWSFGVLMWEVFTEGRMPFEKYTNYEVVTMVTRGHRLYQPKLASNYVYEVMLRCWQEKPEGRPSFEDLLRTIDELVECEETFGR", "chain of UniProt Q8N568 (whole entry, looked up)": "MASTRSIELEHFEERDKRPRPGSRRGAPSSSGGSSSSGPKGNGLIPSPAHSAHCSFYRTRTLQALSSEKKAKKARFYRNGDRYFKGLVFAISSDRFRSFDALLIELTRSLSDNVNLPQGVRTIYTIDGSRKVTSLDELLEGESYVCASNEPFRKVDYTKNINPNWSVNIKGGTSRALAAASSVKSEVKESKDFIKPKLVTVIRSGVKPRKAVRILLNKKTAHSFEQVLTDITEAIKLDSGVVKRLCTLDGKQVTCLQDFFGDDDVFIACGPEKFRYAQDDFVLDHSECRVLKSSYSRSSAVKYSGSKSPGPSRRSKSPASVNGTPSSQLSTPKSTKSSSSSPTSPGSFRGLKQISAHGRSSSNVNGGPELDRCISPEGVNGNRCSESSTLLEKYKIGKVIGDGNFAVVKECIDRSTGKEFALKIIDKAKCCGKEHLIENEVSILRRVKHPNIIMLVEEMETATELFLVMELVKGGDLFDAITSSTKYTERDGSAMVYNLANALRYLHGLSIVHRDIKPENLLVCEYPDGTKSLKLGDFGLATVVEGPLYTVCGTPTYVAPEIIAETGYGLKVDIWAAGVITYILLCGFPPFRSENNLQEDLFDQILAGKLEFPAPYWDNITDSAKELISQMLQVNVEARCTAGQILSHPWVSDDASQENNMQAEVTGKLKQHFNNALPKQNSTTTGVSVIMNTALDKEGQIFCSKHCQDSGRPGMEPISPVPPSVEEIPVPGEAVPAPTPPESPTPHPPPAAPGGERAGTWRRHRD", "chain of UniProt Q9P1W9 (whole entry, looked up)": "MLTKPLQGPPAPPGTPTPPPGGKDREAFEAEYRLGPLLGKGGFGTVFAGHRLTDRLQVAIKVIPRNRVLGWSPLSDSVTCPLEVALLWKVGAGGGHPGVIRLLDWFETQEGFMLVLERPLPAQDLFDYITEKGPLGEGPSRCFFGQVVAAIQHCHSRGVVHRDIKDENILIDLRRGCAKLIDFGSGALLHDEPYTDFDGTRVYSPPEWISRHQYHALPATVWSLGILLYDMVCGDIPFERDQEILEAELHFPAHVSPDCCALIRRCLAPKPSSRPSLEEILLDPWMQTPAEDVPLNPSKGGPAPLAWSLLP", "chain of UniProt Q13163 (whole entry, looked up)": "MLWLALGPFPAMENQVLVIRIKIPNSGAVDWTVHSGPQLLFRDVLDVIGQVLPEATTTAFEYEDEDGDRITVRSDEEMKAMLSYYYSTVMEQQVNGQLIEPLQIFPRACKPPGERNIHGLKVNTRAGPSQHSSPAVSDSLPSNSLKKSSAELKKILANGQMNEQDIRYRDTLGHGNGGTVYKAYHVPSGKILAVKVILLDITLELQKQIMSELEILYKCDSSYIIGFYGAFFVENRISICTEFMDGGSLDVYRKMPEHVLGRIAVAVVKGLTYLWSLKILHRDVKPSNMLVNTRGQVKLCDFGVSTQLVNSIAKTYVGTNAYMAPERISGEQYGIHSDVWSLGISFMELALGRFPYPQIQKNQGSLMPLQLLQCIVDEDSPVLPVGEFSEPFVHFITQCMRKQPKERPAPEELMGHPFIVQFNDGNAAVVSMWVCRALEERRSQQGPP", "chain of UniProt P49840 (whole entry, looked up)": "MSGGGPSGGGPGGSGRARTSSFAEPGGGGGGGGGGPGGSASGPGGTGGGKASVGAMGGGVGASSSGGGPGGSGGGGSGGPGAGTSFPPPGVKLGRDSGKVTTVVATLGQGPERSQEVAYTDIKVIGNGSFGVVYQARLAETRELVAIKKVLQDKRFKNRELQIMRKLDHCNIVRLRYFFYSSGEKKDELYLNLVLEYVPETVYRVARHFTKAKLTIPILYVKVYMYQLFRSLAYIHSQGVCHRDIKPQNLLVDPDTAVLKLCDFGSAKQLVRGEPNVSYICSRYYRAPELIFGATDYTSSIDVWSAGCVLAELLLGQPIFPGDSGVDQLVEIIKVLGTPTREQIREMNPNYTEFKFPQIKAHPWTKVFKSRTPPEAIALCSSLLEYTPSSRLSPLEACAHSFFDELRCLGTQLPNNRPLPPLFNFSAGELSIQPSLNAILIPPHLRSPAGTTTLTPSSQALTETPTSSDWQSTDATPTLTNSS"}
{"data": "Series 1", "Structure (SMILES)": "CS(=O)(=O)N1CCCC(NC(=O)[C@H](CCC2CCCCC2)NC(=O)c2ccc(CNC(=O)c3cnc4ccccn34)cc2)C1 (stereo partly shown)", "method": "competition with immobilised ligand"}
{"target": "Serine/threonine-protein kinase 3 (STK3, Homo sapiens, UniProt Q13188)", "read-out": "cell-free assay", "concentration": "0.1 µM", "remaining binding": "88%"}
{"target": "Phosphatidylinositol 4-phosphate 5-kinase type-1 gamma (PIP5K1C, Homo sapiens, UniProt O60331)", "read-out": "cell-free assay", "concentration": "0.1 µM", "remaining binding": "100%"}
{"target": "Serine/threonine-protein kinase pim-2 (PIM2, Homo sapiens, UniProt Q9P1W9)", "read-out": "cell-free assay", "concentration": "0.1 µM", "remaining binding": "100%"}
{"target": "Serine/threonine-protein kinase TAO1 (TAOK1, Homo sapiens, UniProt Q7L7X3)", "read-out": "cell-free assay", "concentration": "0.1 µM", "remaining binding": "88%"}
{"target": "Serine/threonine-protein kinase DCLK2 (DCLK2, Homo sapiens, UniProt Q8N568)", "read-out": "cell-free assay", "concentration": "0.1 µM", "remaining binding": "100%"}
{"target": "Dual specificity mitogen-activated protein kinase kinase 5 (MAP2K5, Homo sapiens, UniProt Q13163)", "read-out": "cell-free assay", "concentration": "0.1 µM", "remaining binding": "97%"}
{"target": "Homeodomain-interacting protein kinase 1 (HIPK1, Homo sapiens, UniProt Q86Z02)", "read-out": "cell-free assay", "concentration": "0.1 µM", "remaining binding": "100%"}
{"target": "Mast/stem cell growth factor receptor Kit (KIT, Homo sapiens, UniProt P10721, T670I/V559D)", "read-out": "cell-free assay", "concentration": "0.1 µM", "remaining binding": "77%"}
{"target": "Casein kinase II subunit alpha' (CSNK2A2, Homo sapiens, UniProt P19784)", "read-out": "cell-free assay", "concentration": "0.1 µM", "remaining binding": "100%"}
{"target": "Tyrosine-protein kinase Tec (TEC, Homo sapiens, UniProt P42680)", "read-out": "cell-free assay", "concentration": "0.1 µM", "remaining binding": "94%"}
{"target": "Receptor-type tyrosine-protein kinase FLT3 (FLT3, Homo sapiens, UniProt P36888, ITD)", "read-out": "cell-free assay", "concentration": "0.1 µM", "remaining binding": "100%"}
{"target": "Serine/threonine-protein kinase 38-like (STK38L, Homo sapiens, UniProt Q9Y2H1)", "read-out": "binding", "concentration": "1 µM", "remaining binding": "40%"}
{"target": "Glycogen synthase kinase-3 beta (GSK3B, Homo sapiens, UniProt P49841)", "read-out": "cell-free assay", "concentration": "0.1 µM", "remaining binding": "100%"}
{"target": "NUAK family SNF1-like kinase 2 (NUAK2, Homo sapiens, UniProt Q9H093)", "read-out": "cell-free assay", "concentration": "0.1 µM", "remaining binding": "100%"}
{"target": "Tyrosine-protein kinase ABL1, non-phosphorylated (ABL1, Homo sapiens, UniProt P00519, F317I)", "read-out": "binding", "concentration": "0.1 µM", "remaining binding": "80%"}
{"data": "Series 2", "SMILES": "Oc1cccc(-c2nc(N3CCOCC3)c3oc4ncccc4c3n2)c1", "read-out": "enzyme activity", "action": "inhibitor", "concentration": "0.5 µM", "baseline": "control"}
{"target": "Cytoplasmic tyrosine-protein kinase BMX (BMX, Homo sapiens, UniProt P51813)", "remaining activity": "101%"}
{"target": "Serine/threonine-protein kinase Sgk1 (SGK1, Homo sapiens, UniProt O00141)", "remaining activity": "100%"}
{"target": "Ribosomal protein S6 kinase alpha-1 (RPS6KA1, Homo sapiens, UniProt Q15418)", "remaining activity": "79.5%"}
{"target": "Glycogen synthase kinase-3 alpha (GSK3A, Homo sapiens, UniProt P49840)", "remaining activity": "90.2%"}
{"target": "Ephrin type-A receptor 7 (EPHA7, Homo sapiens, UniProt Q15375)", "remaining activity": "93.9%"}
{"target": "Ephrin type-B receptor 2 (EPHB2, Homo sapiens, UniProt P29323)", "remaining activity": "88.6%"}
{"target": "G protein-coupled receptor kinase 6 (GRK6, Homo sapiens, UniProt P43250)", "remaining activity": "98.2%"}
{"target": "Serine/threonine-protein kinase PAK 2 (PAK2, Homo sapiens, UniProt Q13177)", "remaining activity": "97.5%"}
{"data": "Series 3", "organism": "Sarcocystis neurona", "read-out": "parasite growth", "concentration": "10 µM", "time": "96 h"}
{"Compound": "CCN1CCC[C@H]1CNC(=O)c1cc(S(N)(=O)=O)ccc1OC", "inhibition [%]": -10.9}
{"Compound": "CN1CC(=O)N2[C@H](c3ccc4c(c3)OCO4)c3[nH]c4ccccc4c3C[C@@H]2C1=O", "inhibition [%]": -8.3}
{"Compound": "CN(C)CCOC(C)(c1ccccc1)c1ccccn1 (stereo not shown)", "inhibition [%]": -16}
{"Compound": "CS(=O)(=O)c1ccc(C2=C(c3ccccc3)C(=O)OC2)cc1", "inhibition [%]": -1.7}
{"Compound": "NCC(=O)CCC(=O)O", "inhibition [%]": -14.7}
{"Compound": "CC(C)C[C@H](NC(=O)[C@@H](O)[C@H](N)Cc1ccccc1)C(=O)O", "inhibition [%]": -15.9}
{"Compound": "CC[C@H](C)C(=O)O[C@H]1CCC=C2C=C[C@H](C)[C@H](CC[C@@H]3C[C@@H](O)CC(=O)O3)[C@H]21", "inhibition [%]": 0.5}
{"Compound": "COC(=O)C1=C(C)NC(C)=C(C(=O)OCC(C)C)C1c1ccccc1[N+](=O)[O-] (stereo not shown)", "inhibition [%]": -7.3}
{"Compound": "CC(=O)[C@H]1CC[C@H]2[C@@H]3C[C@H](C)C4=CC(=O)CC[C@]4(C)[C@H]3[C@@H](O)C[C@]12C", "inhibition [%]": -12.5}
{"Compound": "Nc1c2c(nc3c1CCC3)CCCC2", "inhibition [%]": -2.1}
{"Compound": "COc1cc(C)nc(-n2nc(C)cc2OC)n1", "inhibition [%]": 0.111}
{"Compound": "Cc1ccc(C)c(OCCCC(C)(C)C(=O)O)c1", "inhibition [%]": -3.4}
{"data": "Series 4", "cell line": "mouse MPNST tumor cells", "method": "high-content immunofluorescence imaging", "measured": "nuclear SOX9", "concentration": "10 µM", "time": "12 h", "notes": "mean of 2 replicates", "baseline": "DMSO control", "reading": "higher = more nuclear SOX9"}
{"Structure (SMILES)": "O=C1c2c(O)ccc(O)c2C(=O)c2c(NCCNCCO)ccc(NCCNCCO)c21", "nuclear SOX9 intensity": "102 % of DMSO"}
{"Structure (SMILES)": "COc1cc(N2CCC(O)CC2)ccc1Nc1cc(Nc2ccccc2S(=O)(=O)C(C)C)c2cc[nH]c2n1", "nuclear SOX9 intensity": "109 % of DMSO"}
{"Structure (SMILES)": "Nc1ncnc2c1c(COc1cccc(Cl)c1)nn2C1CCOCC1", "nuclear SOX9 intensity": "94.2 % of DMSO"}
{"Structure (SMILES)": "O=C(O)c1cc(-c2ccc(C3CCNCC3)cc2)c2ccc(-c3ccc(C(F)(F)F)cc3)cc2c1", "nuclear SOX9 intensity": "163 % of DMSO"}
{"Structure (SMILES)": "O=C(Nc1cc(C(F)(F)F)ccc1O)Nc1cc(C(F)(F)F)ccc1O", "nuclear SOX9 intensity": "103 % of DMSO"}
{"Structure (SMILES)": "COc1cc(C(=S)N2CCOCC2)cc(OC)c1OC", "nuclear SOX9 intensity": "111 % of DMSO"}
{"Structure (SMILES)": "COC(=O)Nc1nc2cc(Sc3ccccc3)ccc2[nH]1", "nuclear SOX9 intensity": "172 % of DMSO"}
{"Structure (SMILES)": "C[C@@H](Oc1nnc(-c2ccncc2)n1C)c1cc(-c2cccc(Cl)c2)on1", "nuclear SOX9 intensity": "93.1 % of DMSO"}
{"Structure (SMILES)": "O=C(Nc1cccc(Br)c1)c1cccc(S(=O)(=O)N2CCCCCC2)c1", "nuclear SOX9 intensity": "166 % of DMSO"}
{"Structure (SMILES)": "COC(=O)C1=C(C#N)NC(C)=C(C(=O)OC(C)C)C1c1cccc([N+](=O)[O-])c1 (stereo not shown)", "nuclear SOX9 intensity": "126 % of DMSO"}
{"Structure (SMILES)": "CCCn1c(=O)c2[nH]c(-c3ccc(OCC(=O)O)cc3)nc2n(CCC)c1=O", "nuclear SOX9 intensity": "95.4 % of DMSO"}
{"Structure (SMILES)": "Cc1cc(CS(=O)(=O)c2ccccc2)cc(OCc2ccc(CN3CCC[C@@H]3CO)cc2)c1", "nuclear SOX9 intensity": "215 % of DMSO"}
{"Structure (SMILES)": "CCn1cc(-c2cccc(C(F)(F)F)c2)c2sc(C(=N)NC3CCS(=O)(=O)CC3)cc2c1=O", "nuclear SOX9 intensity": "139 % of DMSO and 176 % of DMSO"}
{"Structure (SMILES)": "CNc1ncnc2c1ncn2C1OC(CO)C(O)C1O (stereo not shown)", "nuclear SOX9 intensity": "111 % of DMSO"}
{"note": "Repeated from above (series 4):"}
{"Structure (SMILES)": "COC(=O)Nc1nc2cc(Sc3ccccc3)ccc2[nH]1", "nuclear SOX9 intensity": "172 % of DMSO"}
{"Structure (SMILES)": "C[C@@H](Oc1nnc(-c2ccncc2)n1C)c1cc(-c2cccc(Cl)c2)on1", "nuclear SOX9 intensity": "93.1 % of DMSO"}
{"Structure (SMILES)": "O=C(Nc1cccc(Br)c1)c1cccc(S(=O)(=O)N2CCCCCC2)c1", "nuclear SOX9 intensity": "166 % of DMSO"}
{"Structure (SMILES)": "COC(=O)C1=C(C#N)NC(C)=C(C(=O)OC(C)C)C1c1cccc([N+](=O)[O-])c1 (stereo not shown)", "nuclear SOX9 intensity": "126 % of DMSO"}
